Measurements pooled from the literature.
Protocols differ between the studies behind these lines.
Target: Serine/threonine-protein kinase WNK1 (WNK1, Homo sapiens, UniProt Q9H4A3)

C=CC(=O)N1CCCC(n2c(=O)c3ncccc3n(Cc3ccc(Oc4ccccc4)cc3)c2=O)C1 (centres unmarked)  remaining binding (cell-free assay, competition with immobilised ligand; 1 µM): 79%
C=CC(=O)N1CCc2ccc(-n3c(=O)ccc4cnc5ccc(-c6cnn(C)c6)cc5c43)cc21  remaining binding (KINOMEscan; 1 µM; relative to: DMSO control): 100%
O=C(Nc1ccc(Oc2ncnc3[nH]cc(-c4ccccc4)c23)c(F)c1)c1c2n(n(-c3cc(F)ccc3F)c1=O)CCCC2  inhibition (enzyme activity, inhibitor; 0.5 µM): 14%
CC(C)=CC1OC(C)(C)C2C=C3C(=O)C(Cl)=CC(O)C3C3C(O)C4OC4C(=O)C132 (centres unmarked)  remaining binding (cell-free assay, competition with immobilised ligand; 10 µM): 56%
C=CC(=O)N1Cc2nc(-c3cc(-c4cc(Cl)cnc4Cl)c(F)cc3F)n(-c3ccncn3)c2C1  inhibition (cell-free assay, inhibitor; 1 µM): -0.8%
CNC1C[S+]2CC[S+]3CC[S+](C1)[Ru-4]321([N]=C=S)[n]2c3ccc(OC)cc3c3c4c(c5cc(F)c[n+]1c5c32)C(=O)NC4=O (centres unmarked)  remaining binding (KinomeScan; 0.1 µM; relative to: untreated): 100%
O=C(Cc1ccc(OCc2ccccc2)cc1)NC1(C(=O)O)CCN(C(=O)c2ccc(-c3cccc(Cl)c3)cc2)CC1  activity vs control (enzyme activity, inhibitor; 10 µM): 95%
Cc1cnc2nc1Nc1cccc(c1)COC/C=C/COCc1cc(ccc1OCCN1CCOCC1)N2  remaining signal (cell-free assay; 0.1 µM): 85%
CCN1CCN(Cc2ccc(NC(=O)c3ccc(C)c(NC(=O)c4cncc(-c5cnn(C)c5)c4)c3)cc2C(F)(F)F)CC1  remaining binding (binding, competition with immobilised ligand; 1 µM): 77%
COc1cc(Nc2nccc(-c3cnn4nc(OC)ccc34)n2)cc(C(F)(F)F)c1  remaining binding (binding, competition with immobilised ligand; 1 µM): 98%
C[C@H]1CN(C(=O)c2cn(-c3ccnc(N)n3)c3cc(C#CC4(O)CCCCC4)ccc23)CCN1  inhibition (cell-free assay, TR-FRET; 1 µM): 2%
CNC(=O)C[C@H](Cc1ccc(C#N)cc1)NC(=O)c1cc(-c2ccc(CN[C@H](C)c3ccc(C)cc3)o2)ccc1Cl  activity vs control (enzyme activity, inhibitor; 1 µM): 94%
NC(=O)[C@@H](O)C[C@H]1CCc2sc3ncnc(O[C@H]4CC[C@H](N5CCOCC5)CC4)c3c21  inhibition (enzyme activity, inhibitor; 10 µM): -1%
Nc1ncc2c(n1)-c1c([nH]c3ccc(C4=CCOCC4)cc13)CCC2  remaining binding (binding, competition with immobilised ligand; 1 µM): 100%
CNC(=O)C1CCN(c2cc(C)c(F)cc2NC(=O)c2ccc(-c3cc(O)ccc3C)c(C)c2)CC1  remaining binding (binding, competition with immobilised ligand; 1 µM): 94%
COc1cc(Nc2nc(C)cc(-c3cnn4nc(OC)ccc34)n2)cc(C(F)(F)F)c1  remaining binding (binding, competition with immobilised ligand; 1 µM): 66%
CN1CC[C@@H](COc2cnc(C#N)cc2-c2ccn3nc(NC(=O)C4CC4)cc3c2)C1  inhibition (enzyme activity, inhibitor; 1 µM): 6%
NC(=O)C[C@H]1CCc2sc3ncnc(O[C@H]4CC[C@H](N5CCOCC5)CC4)c3c21  inhibition (enzyme activity, inhibitor; 10 µM): 1%
CCN1CCN(Cc2ccc(C(=O)Nc3ccc(C)c(NCc4cnc5[nH]ccc5c4OC)c3)cc2C(F)(F)F)CC1  remaining binding (binding, competition with immobilised ligand; 1 µM): 81%
COc1c(Cl)cccc1Nc1c(-c2ccncc2C#C[C@@]2(C)CCCN2C(=O)/C=C/CN(C)C)[nH]c2c1C(=O)NCC2  remaining binding (binding, competition with immobilised ligand; 3 µM): 98%

Excerpt of the above:
C=CC(=O)N1CCCC(n2c(=O)c3ncccc3n(Cc3ccc(Oc4ccccc4)cc3)c2=O)C1 (centres unmarked)  remaining binding (cell-free assay, competition with immobilised ligand; 1 µM): 79%
COc1c(Cl)cccc1Nc1c(-c2ccncc2C#C[C@@]2(C)CCCN2C(=O)/C=C/CN(C)C)[nH]c2c1C(=O)NCC2  remaining binding (binding, competition with immobilised ligand; 3 µM): 98%
C=CC(=O)N1Cc2nc(-c3cc(-c4cc(Cl)cnc4Cl)c(F)cc3F)n(-c3ccncn3)c2C1  inhibition (cell-free assay, inhibitor; 1 µM): -0.8%
